Measured values collected from several papers.
Each line is one published result; not all experiments were run side by side. ± gives the spread as reported. ≈ marks a conversion by molar mass, not a printed value.

SMILES | organism | assay | test system | conditions | how to read | measurement | value
Cc1ccccc1-c1cn([C@@H]2O[C@H](CO)[C@@H](O)[C@H]2O)c2ncnc(N)c12 | Trichomonas vaginalis | resorufin | G3, metronidazole-sensitive | 24 h + 2 h, 2% O2 | – | EC50 | 9 ± 0.31 µM
CC[C@H](C)[C@H](NC(=O)[C@H](CCCN)NC(=O)[C@H](CC(N)=O)NC(=O)[C@H](CC(C)C)NC(=O)[C@H](Cc1ccccc1)NC(=O)[C@H](CCCN)NC(=O)[C@H](CCCCNC(=N)N)NC(=O)[C@H](CC(C)C)NC(=O)[C@H](CC(C)C)NC(=O)[C@H](CCCN)NC(=O)[C@H](CCCCNC(=N)N)NC(=O)[C@H](CC(C)C)NC(=O)CNC(C)=O)C(=O)N[C@@H](CCCN)C(=O)N[C@@H](CCCCNC(=N)N)C(N)=O | all bacteria tested | – | – | – | – | geometric mean MIC | 4.42 µM
C=C(C)[C@@H]1CCC=C2CC[C@]3(C)[C@H](CC[C@@H]4[C@@]5(C)CCCNC(C)(C)[C@@H]5CC[C@]43C)[C@H]21 | Human cytomegalovirus | cytopathic effect | HFF, AD169 | – | – | EC90 | > 6 µM
CN(C)Cc1cc(N(C)C)c2c(c1O)C(=O)C1=C(O)[C@]3(O)C(=O)C(C(N)=O)=C(O)[C@@H](N(C)C)[C@@H]3C[C@@H]1C2 | Streptococcus pneumoniae | – | ATCC 700905, Tet M ribosome protection | – | – | MIC | 0.5 µg/mL (≈ 0.972 µM)
CN[C@H](CC(C)C)C(=O)N[C@H]1C(=O)N[C@@H](CC(N)=O)C(=O)N[C@H]2C(=O)N[C@H]3C(=O)N[C@H](C(=O)N[C@H](C(=O)O)c4cc(O)cc(O)c4-c4cc3ccc4O)[C@H](O)c3ccc(c(Cl)c3)Oc3cc2cc(c3O[C@@H]2O[C@H](CO)[C@@H](O)[C@H](O)[C@H]2O[C@H]2C[C@](C)(NCc3ccc(C(=O)OCCCCCCN(Cc4ccccn4)Cc4ccccn4)cc3)[C@H](O)[C@H](C)O2)Oc2ccc(cc2Cl)[C@H]1O | Bacillus subtilis | protein synthesis, measured: NfrA | 168 | concentration not given, 10 min, at peak effective concentration | reference: untreated | regulation factor | 2.7 ± 0.2
COc1ccc(C2OC(=O)c3ccc(-c4ccccc4)c(O)c32)c(OC)c1OC (stereo not drawn) | Naegleria fowleri | trophozoite ATP, CellTiter-Glo | ATCC 30808 | concentration not given, 24 h, 37 °C | reference: untreated | ATP level decrease | 66.5%
CC(C)c1ccc(Cn2ccc([C@H](C)[C@](O)(Cn3cnnn3)c3ccc(F)cc3F)n2)cc1 | Candida tropicalis | CLSI broth microdilution | 2718 | 24 h | – | MIC | < 0.008 µg/mL
Cc1ccc2nc(-c3ccc(F)c(F)c3)c(CN3CCN(c4ccc(F)cc4)CC3)n2c1 | Trypanosoma cruzi | – | 3T3 host cells, Tulahuen beta-galactosidase | 6 days | – | EC50 | 1 µM
C[C@@H](c1ccn(Cc2ccc(F)cc2F)n1)[C@](O)(Cn1cnnn1)c1ccc(F)cc1F | Candida tropicalis | growth, broth microdilution | 2718 | 24 h, 30 °C, ≥50% inhibition | – | MIC | < 0.008 µg/mL
CC(C)(C)NCC(SS(=O)(=O)O)c1ccccc1 (stereo not drawn) | Schistosoma mansoni | – | mice | oral, 200 mg/kg once daily for 4 days, from 7 days post infection | – | female worm burden reduction | 95%
CN(C)c1cc(CNCc2ccc(O)cc2)c(O)c2c1C[C@H]1C[C@H]3[C@H](N(C)C)C(O)=C(C(N)=O)C(=O)[C@@]3(O)C(O)=C1C2=O | Streptococcus pneumoniae | – | ATCC 700905, Tet M ribosome protection | – | – | MIC | 1 µg/mL (≈ 1.69 µM)
Oc1ccccc1/C=N/NC(=S)Nc1cccc(F)c1 | Candida tropicalis | broth microdilution | 2718 | – | reference: hit compound | MIC fold improvement | 2 fold
COc1ccc(-c2nc(-c3ccccc3OC)[nH]c2-c2ccc(OC)cc2)cc1 | Schistosoma mansoni | – | mature male and female worms | 10 µM, 96 h | – | worm killing | 0%
C=CCNCc1cc(N(C)C)c2c(c1O)C(=O)C1=C(O)[C@]3(O)C(=O)C(C(N)=O)=C(O)[C@@H](N(C)C)[C@@H]3C[C@@H]1C2 | Streptococcus pneumoniae | microbial growth, broth dilution | – | – | – | MIC | 0.5 µg/mL (≈ 0.95 µM)
Nc1cc2nc(-c3ccccc3)cn2cn1 | Trypanosoma cruzi | – | 3T3 host cells, Tulahuen beta-galactosidase | 6 days | – | EC50 | > 20 µM
